Measurements of several laboratories.
Each line is one published result; not all experiments were run side by side. ± gives the spread as reported.

SMILES | tested on | assay | system | conditions | scale | measurement | result
CN[C@H](CC(C)C)C(=O)N[C@H]1C(=O)N[C@@H](CC(N)=O)C(=O)N[C@H]2C(=O)N[C@H]3C(=O)N[C@H](C(=O)N[C@H](C(=O)O)c4cc(O)cc(O)c4-c4cc3ccc4O)[C@H](O)c3ccc(c(Cl)c3)Oc3cc2cc(c3O[C@@H]2O[C@H](CO)[C@@H](O)[C@H](O)[C@H]2O[C@H]2C[C@](C)(N)[C@H](O)[C@H](C)O2)Oc2ccc(cc2Cl)[C@H]1O |  | population PK model | human neonates | dose not given |  | volume of distribution, typical value | 0.905 L
COc1ccc2nc3cc(Cl)ccc3c(Nc3cc(CN4CCCC4)c(O)c(CN4CCCC4)c3)c2n1 |  |  | mouse, blood | intraperitoneal, 57 mg/kg |  | neutrophils | 25.1%
CO[C@H]1C[C@@H]2CC[C@@H](C)[C@@](O)(O2)C(=O)C(=O)N2CCCC[C@H]2C(=O)O[C@H]([C@H](C)C[C@@H]2CC[C@@H](OC(=O)NCCOCCOCCOCCOCCOCCOCCOCCOCCC(=O)N3CCc4cc(Cn5nc(-c6ccc7oc(N)nc7c6)c6c(N)ncnc65)ccc4C3)[C@H](OC)C2)C[C@@H](O)[C@H](C)/C=C(\C)[C@@H](O)[C@@H](OC)C(=O)[C@H](C)C[C@H](C)/C=C/C=C/C=C/1C |  |  | patients with advanced solid tumours | intravenous, 6 mg weekly, any grade |  | decreased appetite leading to dose reduction | 0%
CN1CC[C@@H](c2c(O)cc(O)c3c(=O)cc(-c4ccc(C(F)(F)F)cc4Cl)oc23)[C@@H]1CO |  | item: Thrombocytopenia | relapsed AML | oral, 150 mg, grade 3-4, intermittent dosing |  | patients with adverse event | 25%
CC(C)C[C@@H]1NC(=O)CNC(=O)[C@H](CC(N)=O)NC(=O)[C@H](CCCNC(=N)N)NC(=O)[C@H]([C@@H](C)O)NC(=O)[C@@H]2CSSC[C@@H]3NC(=O)[C@H]([C@@H](C)O)NC(=O)CNC(=O)[C@H](CCCCN)NC(=O)[C@H](C(C)C)NC(=O)[C@@H]4CSSC[C@H](NC(=O)[C@H]([C@@H](C)O)NC(=O)[C@H](CSSC[C@H](NC(=O)[C@H](C(C)C)NC(=O)[C@@H]5CCCN5C1=O)C(=O)NCC(=O)N[C@@H](CCC(=O)O)C(=O)N[C@@H]([C@@H](C)O)C(=O)N4)NC(=O)CNC(=O)[C@@H]1CCCN1C(=O)[C@H]([C@@H](C)O)NC(=O)[C@H](CC(N)=O)NC3=O)C(=O)N[C@@H](CO)C(=O)N[C@@H](Cc1c[nH]c3ccccc13)C(=O)N1CCC[C@H]1C(=O)N[C@@H](C(C)C)C(=O)N2 |  | HPLC | ammonium bicarbonate 0.1 M | 180 µM, 7 days, pH 9.0, 37 °C, deamidation stability |  | remaining peptide | 83 ± 3.2%
CCc1ccc(CC/C=C/c2ccc3c(c2)C(=O)CC3)cc1 |  |  | Sprague-Dawley rat, female, serum | oral, 450 mg/kg/day, 14 days |  | chloride | 105 mM
COC(=O)c1c(-c2cc(OC)c(OC)c(OC)c2)c2ccc(OCc3ccccn3)cc2c(=O)n1-c1ccc(N)cc1 | Plasmodium falciparum |  | D10 |  |  | IC50 | 6.31 µM
C[C@@H]1NC(=O)[C@H](CCCCNC(=O)CO/N=C/C(=O)NCCCC[C@@H]2NC(=O)[C@@H](Cc3ccccc3)NC(=O)[C@H](CC(=O)O)NC(=O)CNC(=O)[C@H](CCCNC(=N)N)NC2=O)NC(=O)CNC(=O)[C@@H]2CCCN2C(=O)[C@H](CCCCNC(=O)CO/N=C/C(=O)NCCCC[C@@H]2NC(=O)[C@@H](Cc3ccccc3)NC(=O)[C@H](CC(=O)O)NC(=O)CNC(=O)[C@H](CCCNC(=N)N)NC2=O)NC(=O)[C@H](CCCCNC(=O)CN2CCCNCCNCCCNCC2)NC(=O)[C@H](CCCCNC(=O)CO/N=C/C(=O)NCCCC[C@@H]2NC(=O)[C@@H](Cc3ccccc3)NC(=O)[C@H](CC(=O)O)NC(=O)CNC(=O)[C@H](CCCNC(=N)N)NC2=O)NC(=O)CNC(=O)[C@@H]2CCCN2C(=O)[C@H](CCCCNC(=O)CO/N=C/C(=O)NCCCC[C@@H]2NC(=O)[C@@H](Cc3ccccc3)NC(=O)[C@H](CC(=O)O)NC(=O)CNC(=O)[C@H](CCCNC(=N)N)NC2=O)NC1=O [copper-64 labelled] |  |  | normal mice, heart | intravenous, 0.74 MBq, 3 h post-injection |  | tissue uptake | 0.77 ± 0.07 %ID/g
COc1ncnn2ccc(-c3cnc4nc(C)n(Cc5nnc([C@@H](C)F)o5)c4c3)c12 |  |  | human patients | oral, dose not given, all-grade adverse drug reaction |  | incidence of Dehydration | 14.3%
C[C@]1(CO)Cc2ncn(-c3ccc(C#N)c(Cl)c3)c2C(=O)O1 |  |  | Japanese subjects | 20 mg single dose |  | any adverse event incidence | 33.3%
Clc1ccc(-c2cc(Cl)c(Cl)c(Cl)c2Cl)cc1Cl |  |  | PDMS-water partitioning | PCB compilation | relative to: maximum over minimum K | literature range factor | 1.4
O=C(Cc1ccc(Cl)c(Cl)c1)N1CCCCC1CN1CCCC1 (stereo not shown) | Plasmodium falciparum |  | GB4 |  |  | IC50 | 1.58 µM
COc1cc2c(Oc3ccc4[nH]c(C)cc4c3F)ccnc2cc1OCC1(N)CC1 |  |  | paediatric recurrent refractory sarcoma | concentration not given, whole group |  | grade 3 Hypertension | 2.9%
CNC(=O)c1cc(Oc2ccc(NC(=O)Nc3cc(C(C)(C)C)nn3-c3ccc4ncccc4c3)c(F)c2)ccn1 |  | vision blurred, NCI CTC v3.0 | human patients | oral, 150 mg twice daily, tablet, dose at onset |  | related SAE | 3%
CC[C@H](C)CCCCC(=O)N[C@@H](CCN)C(=O)N[C@H](C(=O)N[C@@H](CCN)C(=O)N[C@H]1CCNC(=O)[C@H]([C@@H](C)O)NC(=O)[C@H](CCN)NC(=O)[C@H](CCN)NC(=O)[C@H](CC(C)C)NC(=O)[C@@H](Cc2ccccc2)NC(=O)[C@H](CCN)NC1=O)[C@@H](C)O |  |  | critically ill patients, moderate initial AUC group, plasma | dose not given, median |  | AUC(0-24 h) at steady state | 73400 ng·h/mL
CN1CCN(c2ccc(Nc3nccc(-c4ccccc4)n3)cc2C(F)(F)F)CC1 |  |  | zebrafish embryos | 25 µM, 5 d |  | toxicity | 0 ± 7.4%

For quick reference, copied from above:
SMILES | tested on | assay | system | conditions | scale | measurement | result
COc1cc2c(Oc3ccc4[nH]c(C)cc4c3F)ccnc2cc1OCC1(N)CC1 |  |  | paediatric recurrent refractory sarcoma | concentration not given, whole group |  | grade 3 Hypertension | 2.9%
CNC(=O)c1cc(Oc2ccc(NC(=O)Nc3cc(C(C)(C)C)nn3-c3ccc4ncccc4c3)c(F)c2)ccn1 |  | vision blurred, NCI CTC v3.0 | human patients | oral, 150 mg twice daily, tablet, dose at onset |  | related SAE | 3%
